Measured values gathered from unrelated publications.
Each numbered part is a random draw from the data of one study; scales do not carry over between parts.
UniProt Q00537, sequence (whole entry, looked up): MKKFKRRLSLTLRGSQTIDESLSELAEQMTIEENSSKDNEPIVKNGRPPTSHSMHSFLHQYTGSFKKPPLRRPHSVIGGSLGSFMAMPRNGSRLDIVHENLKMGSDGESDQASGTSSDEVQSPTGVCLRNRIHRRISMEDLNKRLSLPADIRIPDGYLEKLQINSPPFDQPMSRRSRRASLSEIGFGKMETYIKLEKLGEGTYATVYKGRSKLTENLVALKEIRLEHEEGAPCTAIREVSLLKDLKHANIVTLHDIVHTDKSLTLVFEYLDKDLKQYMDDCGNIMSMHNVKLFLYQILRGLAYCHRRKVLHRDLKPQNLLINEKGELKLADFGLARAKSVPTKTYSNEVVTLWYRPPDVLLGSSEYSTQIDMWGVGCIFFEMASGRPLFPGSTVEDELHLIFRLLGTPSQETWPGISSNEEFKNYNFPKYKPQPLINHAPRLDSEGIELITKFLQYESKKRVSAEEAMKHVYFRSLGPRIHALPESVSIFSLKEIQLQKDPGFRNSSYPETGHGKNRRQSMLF
UniProt Q9H1R3, sequence (whole entry, looked up): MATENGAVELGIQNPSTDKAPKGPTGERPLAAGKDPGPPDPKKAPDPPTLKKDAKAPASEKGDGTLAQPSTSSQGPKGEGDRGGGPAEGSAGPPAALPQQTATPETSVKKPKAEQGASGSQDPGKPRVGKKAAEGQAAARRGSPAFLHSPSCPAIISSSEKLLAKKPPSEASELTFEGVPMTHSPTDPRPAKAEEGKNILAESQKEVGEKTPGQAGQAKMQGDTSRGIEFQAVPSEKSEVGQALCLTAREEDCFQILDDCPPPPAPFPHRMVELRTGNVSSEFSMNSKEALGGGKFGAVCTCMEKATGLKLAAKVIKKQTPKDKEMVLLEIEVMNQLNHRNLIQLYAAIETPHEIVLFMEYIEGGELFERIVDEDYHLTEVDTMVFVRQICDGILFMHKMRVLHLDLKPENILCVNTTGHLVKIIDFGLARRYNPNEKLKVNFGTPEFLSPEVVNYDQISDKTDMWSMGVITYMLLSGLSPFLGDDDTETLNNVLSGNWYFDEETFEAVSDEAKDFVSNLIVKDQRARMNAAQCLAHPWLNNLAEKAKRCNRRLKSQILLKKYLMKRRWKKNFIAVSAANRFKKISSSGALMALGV
UniProt Q13873, sequence (whole entry, looked up): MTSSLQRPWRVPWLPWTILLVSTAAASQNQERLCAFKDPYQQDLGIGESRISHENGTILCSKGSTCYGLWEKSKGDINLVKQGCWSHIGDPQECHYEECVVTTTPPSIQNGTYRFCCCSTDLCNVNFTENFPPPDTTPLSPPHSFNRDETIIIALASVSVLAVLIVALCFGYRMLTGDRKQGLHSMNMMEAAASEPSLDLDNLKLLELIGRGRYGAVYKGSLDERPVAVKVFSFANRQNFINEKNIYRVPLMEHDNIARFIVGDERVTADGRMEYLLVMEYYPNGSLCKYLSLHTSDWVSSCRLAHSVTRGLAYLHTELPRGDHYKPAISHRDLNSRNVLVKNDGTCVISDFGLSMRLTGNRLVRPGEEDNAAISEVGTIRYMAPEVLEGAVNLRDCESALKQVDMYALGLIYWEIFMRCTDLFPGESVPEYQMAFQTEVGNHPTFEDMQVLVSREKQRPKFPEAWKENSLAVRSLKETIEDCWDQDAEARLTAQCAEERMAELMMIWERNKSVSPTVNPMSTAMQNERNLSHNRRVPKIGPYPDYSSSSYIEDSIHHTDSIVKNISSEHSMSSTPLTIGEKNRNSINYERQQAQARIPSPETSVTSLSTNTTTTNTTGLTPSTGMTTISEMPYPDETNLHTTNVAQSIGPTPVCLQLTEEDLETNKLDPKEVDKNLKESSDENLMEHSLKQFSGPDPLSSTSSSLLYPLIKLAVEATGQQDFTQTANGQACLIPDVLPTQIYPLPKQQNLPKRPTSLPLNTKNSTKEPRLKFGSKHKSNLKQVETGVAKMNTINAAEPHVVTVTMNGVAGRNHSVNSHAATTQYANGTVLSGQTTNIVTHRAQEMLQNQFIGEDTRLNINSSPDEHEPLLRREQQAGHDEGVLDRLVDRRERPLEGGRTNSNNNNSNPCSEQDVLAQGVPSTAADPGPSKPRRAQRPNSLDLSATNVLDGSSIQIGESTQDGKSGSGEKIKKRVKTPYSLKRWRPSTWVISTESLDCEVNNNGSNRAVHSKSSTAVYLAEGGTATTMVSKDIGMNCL
UniProt P29322, sequence (whole entry, looked up): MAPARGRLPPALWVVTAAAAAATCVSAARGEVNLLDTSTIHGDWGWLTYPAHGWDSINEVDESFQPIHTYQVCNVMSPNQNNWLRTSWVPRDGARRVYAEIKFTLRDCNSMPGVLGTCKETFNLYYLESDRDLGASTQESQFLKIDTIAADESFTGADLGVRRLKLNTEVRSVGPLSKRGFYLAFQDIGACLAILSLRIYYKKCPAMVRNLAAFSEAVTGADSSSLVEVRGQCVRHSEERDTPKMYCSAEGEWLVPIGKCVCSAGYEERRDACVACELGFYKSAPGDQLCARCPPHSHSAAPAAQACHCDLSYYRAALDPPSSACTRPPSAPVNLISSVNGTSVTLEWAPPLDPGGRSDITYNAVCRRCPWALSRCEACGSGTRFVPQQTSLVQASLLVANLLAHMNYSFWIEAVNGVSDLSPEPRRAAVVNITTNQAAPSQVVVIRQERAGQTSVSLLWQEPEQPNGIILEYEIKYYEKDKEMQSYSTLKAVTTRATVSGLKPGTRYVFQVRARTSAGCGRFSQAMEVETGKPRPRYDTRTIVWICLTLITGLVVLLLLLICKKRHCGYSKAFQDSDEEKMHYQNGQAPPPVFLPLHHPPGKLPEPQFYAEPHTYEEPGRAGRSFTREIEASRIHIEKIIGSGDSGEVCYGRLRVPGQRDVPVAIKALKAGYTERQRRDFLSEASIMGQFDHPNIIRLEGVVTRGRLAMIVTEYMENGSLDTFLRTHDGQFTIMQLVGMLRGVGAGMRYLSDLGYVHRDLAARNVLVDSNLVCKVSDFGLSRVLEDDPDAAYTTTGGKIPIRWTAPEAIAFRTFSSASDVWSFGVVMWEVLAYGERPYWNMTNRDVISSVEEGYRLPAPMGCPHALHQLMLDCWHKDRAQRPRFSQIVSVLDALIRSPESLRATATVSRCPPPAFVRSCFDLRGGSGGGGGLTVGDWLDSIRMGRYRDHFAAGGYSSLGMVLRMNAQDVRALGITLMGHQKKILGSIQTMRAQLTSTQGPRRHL

Sample 1
Target: Calcium/calmodulin-dependent protein kinase type II subunit alpha (CAMK2A, Homo sapiens, UniProt Q9UQM7)
UniProt Q9UQM7, sequence (whole entry, looked up): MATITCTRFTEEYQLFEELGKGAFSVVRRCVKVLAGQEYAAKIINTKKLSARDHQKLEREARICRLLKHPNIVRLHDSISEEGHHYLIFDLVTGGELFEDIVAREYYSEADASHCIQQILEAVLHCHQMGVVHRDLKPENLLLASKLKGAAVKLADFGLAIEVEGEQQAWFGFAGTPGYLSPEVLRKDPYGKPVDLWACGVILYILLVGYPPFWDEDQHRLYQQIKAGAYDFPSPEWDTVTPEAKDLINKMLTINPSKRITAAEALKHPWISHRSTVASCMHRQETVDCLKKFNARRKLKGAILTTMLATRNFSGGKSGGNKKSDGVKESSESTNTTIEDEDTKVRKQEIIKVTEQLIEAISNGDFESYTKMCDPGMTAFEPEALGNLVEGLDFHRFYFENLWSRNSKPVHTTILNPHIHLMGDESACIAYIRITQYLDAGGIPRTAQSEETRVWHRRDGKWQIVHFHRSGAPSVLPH
Effect on: enzyme activity
Mode: inhibitor
Tested at: 10 µM
Quantity: inhibition
Cc1ncc([N+](=O)[O-])n1CC(C)O (stereo not drawn): -3%
CC1=C[C@]23C(=O)[C@@H](C=C4COC(C)(C)O[C@H]4C2(O)[C@H]1O)[C@H]1[C@@H](C[C@H]3C)C1(C)C (stereo partly drawn): 12%
Oc1cnc2c(O)cccc2c1: -9%
CC(C)=CCO: -38%
O=C1CCC[C@@H]2[C@H]3CCC[N+]4([O-])CCC[C@H](CN12)[C@@H]34 (stereo partly drawn): 20%

Sample 2
Method: exponential regression of PRP log k'
pH: 7.0
Quantity: logD (1,9-decadiene/water)
CCCC(=O)NCCCCCC(=O)N[C@H](C(=O)N1C[C@H](O)C[C@H]1C(=O)NCc1ccc(-c2scnc2C)cc1)C(C)(C)C: -4.29
Cc1ncsc1-c1ccc(CNC(=O)[C@@H]2C[C@@H](O)CN2C(=O)[C@@H](NC(=O)CCCCCNC(=O)CC23C[C@H]4C[C@@H](C2)C[C@@H](C3)C4)C(C)(C)C)cc1: -0.318
Cc1ncsc1-c1ccc(CNC(=O)[C@@H]2C[C@@H](O)CN2C(=O)[C@@H](NC(=O)CCCCCOC(=O)CC23C[C@H]4C[C@@H](C2)C[C@@H](C3)C4)C(C)(C)C)cc1: 1.99
Cc1ncsc1-c1ccc(CNC(=O)[C@@H]2C[C@@H](O)CN2C(=O)[C@@H](NC(=O)CCCCCOC(=O)CC(c2ccccc2)c2ccccc2)C(C)(C)C)cc1: 1.35
COCC(=O)OCCCCCC(=O)N[C@H](C(=O)N1C[C@H](O)C[C@H]1C(=O)NCc1ccc(-c2scnc2C)cc1)C(C)(C)C: -3.29

Sample 3
Target: Serine/threonine-protein kinase haspin (HASPIN, Homo sapiens, UniProt Q8TF76)
Effect on: enzyme activity
Mode: inhibitor
Tested at: 0.5 µM
Relative to: control
Quantity: remaining activity
Construct (Q8TF76 1-798): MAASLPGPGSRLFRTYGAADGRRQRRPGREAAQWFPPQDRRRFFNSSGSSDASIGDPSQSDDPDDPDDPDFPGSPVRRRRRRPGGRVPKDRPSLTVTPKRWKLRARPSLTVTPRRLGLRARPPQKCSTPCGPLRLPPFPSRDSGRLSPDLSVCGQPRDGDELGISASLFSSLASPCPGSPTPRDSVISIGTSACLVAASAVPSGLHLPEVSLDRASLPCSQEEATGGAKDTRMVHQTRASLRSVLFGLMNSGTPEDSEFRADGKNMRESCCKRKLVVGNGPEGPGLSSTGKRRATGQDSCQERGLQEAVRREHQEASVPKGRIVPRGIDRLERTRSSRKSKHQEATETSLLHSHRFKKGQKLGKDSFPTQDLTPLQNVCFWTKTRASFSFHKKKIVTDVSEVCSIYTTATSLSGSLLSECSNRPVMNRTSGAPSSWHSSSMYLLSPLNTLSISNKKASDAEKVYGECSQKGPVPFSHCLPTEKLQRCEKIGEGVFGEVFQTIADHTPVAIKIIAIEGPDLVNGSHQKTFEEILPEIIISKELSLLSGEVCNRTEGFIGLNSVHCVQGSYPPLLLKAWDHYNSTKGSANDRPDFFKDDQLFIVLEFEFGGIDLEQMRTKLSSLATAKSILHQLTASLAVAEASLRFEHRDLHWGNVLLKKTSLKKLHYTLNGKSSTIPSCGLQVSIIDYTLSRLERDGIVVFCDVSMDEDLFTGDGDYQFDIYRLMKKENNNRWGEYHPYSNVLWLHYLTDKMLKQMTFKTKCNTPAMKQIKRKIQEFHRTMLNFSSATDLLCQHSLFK
CCOC(=O)c1c(C)[nH]c(/C=C2\C(=O)Nc3ccccc32)c1C: 92.9%
Cc1nc(-c2ccccc2)c(-c2ccncc2)o1: 87.6%
COc1cc2ncnc(Nc3ccc(F)c(Cl)c3)c2cc1OCCCN1CCOCC1: 84%
Cc1ccc(Nc2nccc(N(C)c3ccc4c(C)n(C)nc4c3)n2)cc1S(N)(=O)=O: 90.4%
Oc1ccc(-c2nc(-c3ccncc3)c(-c3ccc(F)cc3)[nH]2)cc1: 86.9%
Nc1ncnc2n[nH]c(Nc3ccc(F)cc3)c12: 87.7%
C#Cc1cccc(Nc2ncnc3cc(OCCOC)c(OCCOC)cc23)c1: 80.9%
CO[C@H]1C[C@@H]2CC[C@@H](C)[C@@](O)(O2)C(=O)C(=O)N2CCCC[C@H]2C(=O)O[C@H]([C@H](C)C[C@@H]2CC[C@@H](O)[C@H](OC)C2)CC(=O)[C@H](C)/C=C(\C)[C@@H](O)[C@@H](OC)C(=O)[C@H](C)C[C@H](C)/C=C/C=C/C=C/1C: 103%
Nc1ccc2ncnc(NCCc3ccc(Oc4ccccc4)cc3)c2c1: 96.9%
NCCNc1ncc(C(N)=O)c(Nc2cccc(C(F)(F)F)c2)n1: 57.8%
Cc1ccc(NC(=O)c2ccc(CN3CCN(C)CC3)cc2)cc1Nc1nc(-c2cccnc2)cs1: 100%
Cc1cccc(-c2[nH]c(C(C)(C)C)nc2-c2ccc3c(c2)OCO3)n1: 78.7%
O=C(CCCc1ccc(-c2ccccc2F)cc1)Nc1ccc(O)cc1: 94.7%
CC(C)[C@H](CO)Nc1nc(Nc2cc(N)cc(Cl)c2)c2ncn(C(C)C)c2n1: 99.9%

Sample 4
Compound: O=C(Nc1cccnn1)N1CC(C/C=C/c2cncc(Oc3ccc(C(F)(F)F)cn3)n2)C1
Effect on: cell-free assay
Method: competition with immobilised ligand
Tested at: 1 µM
Quantity: remaining binding
HASPIN (Homo sapiens, UniProt Q8TF76): 79%
CDK17 (Homo sapiens, UniProt Q00537): 100%
EGFR (Homo sapiens, UniProt P00533, L858R): 97%
EPHA8 (Homo sapiens, UniProt P29322): 100%
MYLK2 (Homo sapiens, UniProt Q9H1R3): 87%
BMPR2 (Homo sapiens, UniProt Q13873): 76%

For quick reference, copied from above (sample 4):
HASPIN (Homo sapiens, UniProt Q8TF76): 79%
CDK17 (Homo sapiens, UniProt Q00537): 100%
